Measurements collected from several papers.
Lines come from different studies, so protocols differ. ± marks the error that the study gave.
TMEM97: Sigma intracellular receptor 2 (TMEM97, Homo sapiens, UniProt Q5BJF2)
UniProt Q5BJF2, sequence (whole entry, looked up): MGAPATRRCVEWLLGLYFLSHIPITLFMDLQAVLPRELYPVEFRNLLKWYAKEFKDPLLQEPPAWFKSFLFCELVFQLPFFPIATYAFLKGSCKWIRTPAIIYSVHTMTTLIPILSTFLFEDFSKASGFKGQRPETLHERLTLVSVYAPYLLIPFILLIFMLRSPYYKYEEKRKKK
Vesicular acetylcholine transporter: Vesicular acetylcholine transporter (Rattus norvegicus, UniProt Q62666)
UniProt Q62666, sequence (whole entry, looked up): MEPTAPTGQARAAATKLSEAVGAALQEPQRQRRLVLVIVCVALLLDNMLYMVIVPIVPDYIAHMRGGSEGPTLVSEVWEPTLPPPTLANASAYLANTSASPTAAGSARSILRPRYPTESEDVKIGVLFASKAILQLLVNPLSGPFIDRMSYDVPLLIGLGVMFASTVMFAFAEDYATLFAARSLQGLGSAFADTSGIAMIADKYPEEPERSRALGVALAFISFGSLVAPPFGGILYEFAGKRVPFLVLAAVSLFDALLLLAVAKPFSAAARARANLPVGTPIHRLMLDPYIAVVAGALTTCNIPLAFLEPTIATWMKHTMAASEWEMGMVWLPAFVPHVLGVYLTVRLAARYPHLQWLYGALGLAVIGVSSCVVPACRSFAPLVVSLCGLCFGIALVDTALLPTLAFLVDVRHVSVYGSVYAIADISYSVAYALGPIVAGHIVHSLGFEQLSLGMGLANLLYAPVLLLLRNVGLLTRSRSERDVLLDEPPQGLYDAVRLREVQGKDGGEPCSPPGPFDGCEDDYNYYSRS
HTR2C: 5-hydroxytryptamine receptor 2C (HTR2C, Homo sapiens, UniProt P28335)
UniProt P28335, sequence (whole entry, looked up): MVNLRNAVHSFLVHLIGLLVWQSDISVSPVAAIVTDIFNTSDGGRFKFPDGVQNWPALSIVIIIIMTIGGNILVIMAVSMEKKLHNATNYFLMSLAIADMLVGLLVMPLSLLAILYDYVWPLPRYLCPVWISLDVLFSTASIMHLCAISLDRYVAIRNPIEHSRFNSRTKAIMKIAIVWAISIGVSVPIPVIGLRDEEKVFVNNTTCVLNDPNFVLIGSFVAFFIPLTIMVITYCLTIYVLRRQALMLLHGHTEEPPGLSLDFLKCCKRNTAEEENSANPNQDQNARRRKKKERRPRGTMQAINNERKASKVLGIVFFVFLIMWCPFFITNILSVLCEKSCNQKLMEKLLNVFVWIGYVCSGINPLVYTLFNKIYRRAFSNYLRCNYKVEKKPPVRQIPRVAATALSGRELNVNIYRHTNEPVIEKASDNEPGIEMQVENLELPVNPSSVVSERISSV
UniProt P10144, sequence (whole entry, looked up): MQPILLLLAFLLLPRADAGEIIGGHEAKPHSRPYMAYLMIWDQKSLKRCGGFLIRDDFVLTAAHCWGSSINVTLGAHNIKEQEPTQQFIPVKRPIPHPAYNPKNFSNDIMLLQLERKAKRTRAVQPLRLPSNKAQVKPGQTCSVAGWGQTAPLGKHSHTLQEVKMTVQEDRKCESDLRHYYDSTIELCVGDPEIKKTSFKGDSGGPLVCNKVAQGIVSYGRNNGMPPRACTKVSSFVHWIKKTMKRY
UniProt O60930, sequence (whole entry, looked up): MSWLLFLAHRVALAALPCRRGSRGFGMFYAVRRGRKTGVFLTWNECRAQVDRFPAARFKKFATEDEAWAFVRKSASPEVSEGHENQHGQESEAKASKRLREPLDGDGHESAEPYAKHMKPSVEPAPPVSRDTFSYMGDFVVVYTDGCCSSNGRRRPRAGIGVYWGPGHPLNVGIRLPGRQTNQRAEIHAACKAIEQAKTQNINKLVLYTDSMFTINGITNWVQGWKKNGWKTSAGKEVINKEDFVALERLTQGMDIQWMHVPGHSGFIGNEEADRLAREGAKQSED

| SMILES | target | test | test system | conditions | Ki [nM] |
| --- | --- | --- | --- | --- | --- |
| C[C@]12COc3ccc(OCc4ccc(C(F)(F)F)cc4)cc3[C@H]1CCN2 | TMEM97 | cell-free assay, radioligand |  |  | 11 |
| Cc1ccc(C2CCN(C3Cc4ccccc4CC3O)CC2)cc1 (racemic) | Vesicular acetylcholine transporter | radioligand binding | PC12 expressing VAChT | together with: [3H]vesamicol | 5.3 ± 0.3 |
| Cc1cc(O)c(=O)c(O)cc1C(=O)N1CCN(C(=O)c2cccc3ccccc23)CC1 | Ribonuclease H1 (Homo sapiens, UniProt O60930) | enzyme activity, inhibitor, FRET cleavage |  | catalytic domain, enzyme binding | 27100 |
| CCCCN1CCC(COC(=O)c2ccc(N)c(OCF)c2)CC1 [fluorine-18 labelled] | TMEM97 | NIMH-PDSP radioligand binding |  |  | 43 |
| CC(=O)N[C@@H](CC(C)C)C(=O)N[C@@H](CC(C)C)C(=O)N[C@@H](CC(C)C)C(=O)N[C@@H](CC(C)C)C(=O)N[C@@H](CC(C)C)C(=O)N[C@@H](CC(C)C)C(=O)N[C@@H](CCCNC(=N)N)C(=O)N[C@H](C(=O)N[C@@H](CCCCN)C(=O)N[C@@H](CCCNC(=N)N)C(N)=O)C(C)C | proprotein convertase 1/3 (human) | inhibitor |  |  | 1700 ± 600 |
| CCc1c(Cl)cccc1N1CCN(C[C@@H](F)CCNC(=O)c2cc3ccccc3[nH]2)CC1 | HTR2C | ligand displacement, radioligand |  | cell membranes | 1210 |
| Cc1ccc(C2CCN(C3CCCCC3O)CC2)cc1 (racemic) | Vesicular acetylcholine transporter | radioligand binding | PC12 expressing VAChT | together with: [3H]vesamicol | 520 ± 60 |
| Cn1ccc2c(N3CCN(CCCCOc4ccc5c(c4)NC(=O)CC5)CC3)cccc21 | HTR2C | ligand displacement, radioligand |  |  | 200 |
| CC(=O)N[C@@H](CC(C)C)C(=O)N[C@@H](CC(C)C)C(=O)N[C@@H](CC(C)C)C(=O)N[C@@H](CC(C)C)C(=O)N[C@@H](CCCNC(=N)N)C(=O)N[C@H](C(=O)N[C@@H](CCCCN)C(=O)N[C@@H](CCCNC(=N)N)C(N)=O)C(C)C | proprotein convertase 1/3 (human) | inhibitor |  |  | 114 ± 7 |
| OC1Cc2ccccc2CC1N1CCC(c2ccc(Br)cc2)CC1 (racemic) | Vesicular acetylcholine transporter | radioligand binding | PC12 expressing VAChT | together with: [3H]vesamicol | 4.7 ± 0.3 |
| CC[C@H](C)[C@H](NC(=O)Cc1cccc(CNC(=O)C[C@H](NC(=O)C[C@H](NC(=O)CN2CCN(CC(=O)O)CCN(CC(=O)O)CCN(CC(=O)O)CC2)C(=O)O)C(=O)O)c1)C(=O)N[C@H]1CCc2cccc3c2N(C1=O)[C@H](C(=O)NCc1cn[nH]n1)C3 | Granzyme B (GZMB, Homo sapiens, UniProt P10144) | enzyme activity, inhibitor, fluorescence |  |  | 30.7 |
| CC(C)(C)n1nc(-c2ccc(Cl)cc2)c2c(N)ncnc21 | Proto-oncogene tyrosine-protein kinase Src (SRC, Gallus gallus, UniProt P00523, G530I/P529E/Q528E) | enzyme activity, inhibitor, radiometric |  |  | 87 |
